Published values from different studies.
A part holds a random share of what one study measured.
Chain of UniProt P51957 (whole entry, looked up): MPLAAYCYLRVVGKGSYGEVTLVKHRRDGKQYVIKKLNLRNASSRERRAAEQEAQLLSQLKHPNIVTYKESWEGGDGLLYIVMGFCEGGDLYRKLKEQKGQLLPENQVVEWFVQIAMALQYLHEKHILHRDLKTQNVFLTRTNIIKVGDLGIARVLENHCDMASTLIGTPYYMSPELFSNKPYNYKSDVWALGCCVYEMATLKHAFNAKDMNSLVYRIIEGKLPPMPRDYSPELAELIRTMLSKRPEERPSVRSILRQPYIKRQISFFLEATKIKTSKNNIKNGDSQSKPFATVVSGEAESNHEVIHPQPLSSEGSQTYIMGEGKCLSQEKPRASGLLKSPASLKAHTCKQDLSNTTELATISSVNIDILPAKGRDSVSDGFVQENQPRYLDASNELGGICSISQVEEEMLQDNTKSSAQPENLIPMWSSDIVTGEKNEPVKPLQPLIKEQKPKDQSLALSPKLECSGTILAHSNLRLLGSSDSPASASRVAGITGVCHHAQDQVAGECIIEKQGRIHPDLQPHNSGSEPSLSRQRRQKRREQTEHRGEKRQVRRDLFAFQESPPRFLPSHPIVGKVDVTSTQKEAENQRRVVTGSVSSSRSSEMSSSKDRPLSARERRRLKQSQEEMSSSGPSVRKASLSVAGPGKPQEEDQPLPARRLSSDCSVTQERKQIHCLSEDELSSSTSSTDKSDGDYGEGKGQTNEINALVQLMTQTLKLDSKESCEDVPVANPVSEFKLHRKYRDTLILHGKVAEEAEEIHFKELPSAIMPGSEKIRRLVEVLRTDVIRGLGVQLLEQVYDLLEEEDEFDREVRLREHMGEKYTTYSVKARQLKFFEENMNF
Chain of UniProt P25098 (whole entry, looked up): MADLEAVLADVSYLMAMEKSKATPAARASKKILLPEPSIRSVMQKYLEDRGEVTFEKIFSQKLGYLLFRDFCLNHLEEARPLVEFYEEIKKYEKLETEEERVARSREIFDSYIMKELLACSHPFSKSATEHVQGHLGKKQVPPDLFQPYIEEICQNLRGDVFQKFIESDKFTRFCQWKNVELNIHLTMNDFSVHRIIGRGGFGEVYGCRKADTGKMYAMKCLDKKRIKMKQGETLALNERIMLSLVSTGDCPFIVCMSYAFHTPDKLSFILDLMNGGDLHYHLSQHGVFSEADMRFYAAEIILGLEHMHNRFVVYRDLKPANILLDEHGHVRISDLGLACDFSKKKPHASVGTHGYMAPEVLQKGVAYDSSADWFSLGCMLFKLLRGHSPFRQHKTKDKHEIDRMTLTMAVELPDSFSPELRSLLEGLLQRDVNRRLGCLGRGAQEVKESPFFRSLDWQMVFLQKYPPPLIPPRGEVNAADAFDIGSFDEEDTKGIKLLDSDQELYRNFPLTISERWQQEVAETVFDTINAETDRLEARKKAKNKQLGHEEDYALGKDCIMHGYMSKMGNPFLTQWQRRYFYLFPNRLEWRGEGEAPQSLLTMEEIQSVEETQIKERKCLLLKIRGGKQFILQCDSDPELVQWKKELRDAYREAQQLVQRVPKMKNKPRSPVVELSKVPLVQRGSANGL
Chain of UniProt O43683 (whole entry, looked up): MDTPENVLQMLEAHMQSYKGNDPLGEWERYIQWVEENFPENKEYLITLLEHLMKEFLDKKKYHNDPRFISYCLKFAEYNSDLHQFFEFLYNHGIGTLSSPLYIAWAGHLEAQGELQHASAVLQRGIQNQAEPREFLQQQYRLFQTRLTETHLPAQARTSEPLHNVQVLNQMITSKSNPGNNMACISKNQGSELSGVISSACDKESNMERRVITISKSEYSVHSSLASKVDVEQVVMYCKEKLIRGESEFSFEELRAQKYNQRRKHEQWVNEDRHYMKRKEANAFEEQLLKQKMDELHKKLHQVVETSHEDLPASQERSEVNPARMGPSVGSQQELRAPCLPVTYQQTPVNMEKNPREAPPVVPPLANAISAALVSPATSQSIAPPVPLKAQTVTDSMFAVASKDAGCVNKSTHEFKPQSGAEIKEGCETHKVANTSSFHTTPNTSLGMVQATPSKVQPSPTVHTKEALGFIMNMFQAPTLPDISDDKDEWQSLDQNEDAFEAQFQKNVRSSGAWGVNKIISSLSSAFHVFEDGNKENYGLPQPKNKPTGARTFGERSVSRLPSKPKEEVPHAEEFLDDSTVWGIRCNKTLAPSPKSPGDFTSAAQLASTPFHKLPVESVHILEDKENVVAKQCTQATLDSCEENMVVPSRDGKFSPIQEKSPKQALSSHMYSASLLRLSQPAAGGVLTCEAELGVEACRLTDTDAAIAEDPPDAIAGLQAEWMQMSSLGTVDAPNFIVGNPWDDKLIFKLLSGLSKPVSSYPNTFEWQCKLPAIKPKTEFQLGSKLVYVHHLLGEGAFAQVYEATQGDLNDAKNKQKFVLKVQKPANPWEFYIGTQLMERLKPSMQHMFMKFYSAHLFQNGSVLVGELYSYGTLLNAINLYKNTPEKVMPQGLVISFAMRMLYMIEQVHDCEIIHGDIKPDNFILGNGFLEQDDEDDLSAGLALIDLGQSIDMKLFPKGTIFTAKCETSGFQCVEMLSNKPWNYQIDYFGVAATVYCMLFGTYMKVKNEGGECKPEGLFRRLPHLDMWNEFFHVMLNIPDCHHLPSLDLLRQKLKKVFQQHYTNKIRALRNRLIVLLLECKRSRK
Chain of UniProt P53671 (whole entry, looked up): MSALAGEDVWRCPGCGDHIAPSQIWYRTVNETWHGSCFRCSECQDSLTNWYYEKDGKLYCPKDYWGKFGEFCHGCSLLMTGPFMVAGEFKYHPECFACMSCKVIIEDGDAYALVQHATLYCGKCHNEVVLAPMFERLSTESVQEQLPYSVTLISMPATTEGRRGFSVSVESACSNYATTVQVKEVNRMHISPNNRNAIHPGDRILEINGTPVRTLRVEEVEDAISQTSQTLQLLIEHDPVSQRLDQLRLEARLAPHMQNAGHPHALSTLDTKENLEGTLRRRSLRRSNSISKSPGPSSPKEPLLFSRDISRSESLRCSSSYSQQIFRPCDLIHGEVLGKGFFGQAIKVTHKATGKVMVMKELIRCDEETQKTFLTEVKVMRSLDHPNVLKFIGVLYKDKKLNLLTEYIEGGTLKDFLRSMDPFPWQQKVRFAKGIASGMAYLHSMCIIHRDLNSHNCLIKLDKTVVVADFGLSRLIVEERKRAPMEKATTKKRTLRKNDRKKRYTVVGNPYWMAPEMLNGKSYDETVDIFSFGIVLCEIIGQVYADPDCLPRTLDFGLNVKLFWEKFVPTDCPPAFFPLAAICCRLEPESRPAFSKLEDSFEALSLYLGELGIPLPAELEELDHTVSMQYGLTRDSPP

Set 1 — effect on: potassium current; mode: inhibitor; method: manual patch clamp; cells: HEK293 stably expressing hERG
Compound: O=C1CCC(N2Cc3cc(C4CCN(Cc5ccccc5)CC4)ccc3C2=O)C(=O)N1 (stereo not drawn)
Target: Voltage-gated inwardly rectifying potassium channel KCNH2 (KCNH2, Homo sapiens, UniProt Q12809)
Chain of UniProt Q12809 (whole entry, looked up): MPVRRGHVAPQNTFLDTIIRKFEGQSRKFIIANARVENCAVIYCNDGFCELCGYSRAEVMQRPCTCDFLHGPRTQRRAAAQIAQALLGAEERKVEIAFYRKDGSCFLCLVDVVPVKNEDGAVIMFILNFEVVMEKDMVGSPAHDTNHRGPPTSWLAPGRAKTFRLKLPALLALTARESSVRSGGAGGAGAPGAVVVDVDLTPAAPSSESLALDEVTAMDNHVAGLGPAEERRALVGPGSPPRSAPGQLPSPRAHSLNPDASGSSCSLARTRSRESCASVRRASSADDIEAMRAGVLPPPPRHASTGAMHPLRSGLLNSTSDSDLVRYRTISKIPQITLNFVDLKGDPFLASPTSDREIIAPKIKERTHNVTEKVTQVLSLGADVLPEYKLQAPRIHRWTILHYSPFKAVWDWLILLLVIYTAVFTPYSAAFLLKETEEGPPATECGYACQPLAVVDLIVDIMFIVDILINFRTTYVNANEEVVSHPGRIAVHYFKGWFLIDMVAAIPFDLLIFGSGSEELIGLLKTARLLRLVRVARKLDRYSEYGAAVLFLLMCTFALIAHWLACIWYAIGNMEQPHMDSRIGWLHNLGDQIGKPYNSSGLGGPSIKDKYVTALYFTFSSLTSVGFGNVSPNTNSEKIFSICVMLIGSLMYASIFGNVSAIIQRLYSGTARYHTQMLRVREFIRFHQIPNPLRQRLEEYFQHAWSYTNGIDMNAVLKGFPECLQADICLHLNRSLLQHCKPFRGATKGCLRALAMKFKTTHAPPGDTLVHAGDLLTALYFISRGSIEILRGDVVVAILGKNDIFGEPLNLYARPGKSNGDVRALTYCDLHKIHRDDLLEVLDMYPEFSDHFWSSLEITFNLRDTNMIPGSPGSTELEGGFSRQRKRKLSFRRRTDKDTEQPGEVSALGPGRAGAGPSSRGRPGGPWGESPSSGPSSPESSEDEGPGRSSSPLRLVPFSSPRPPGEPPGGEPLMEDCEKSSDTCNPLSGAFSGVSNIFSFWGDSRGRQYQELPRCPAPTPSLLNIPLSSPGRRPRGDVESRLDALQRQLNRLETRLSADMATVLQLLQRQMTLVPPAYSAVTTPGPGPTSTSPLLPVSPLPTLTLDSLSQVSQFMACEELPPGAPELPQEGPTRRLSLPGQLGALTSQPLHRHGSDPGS
| concentration | notes | mean inhibition [%] |
| --- | --- | --- |
| 3.39 µM | measured concentration | 32.7 |
| 11.04 µM | measured concentration | 56.2 |
| 31.13 µM | measured concentration | 77.5 |
| 1.00 µM | nominal concentration | 15 |
| 10.00 µM | nominal concentration | 56.2 |
| 1.18 µM | measured concentration | 15 |
| 30.00 µM | nominal concentration | 77.5 |
| 3.00 µM | nominal concentration | 32.7 |

Set 2 — effect on: enzyme activity; mode: inhibitor; concentration: 0.5 µM; baseline: control
Target: G protein-coupled receptor kinase 5 (GRK5, Homo sapiens, UniProt P34947)
Chain of UniProt P34947 (whole entry, looked up): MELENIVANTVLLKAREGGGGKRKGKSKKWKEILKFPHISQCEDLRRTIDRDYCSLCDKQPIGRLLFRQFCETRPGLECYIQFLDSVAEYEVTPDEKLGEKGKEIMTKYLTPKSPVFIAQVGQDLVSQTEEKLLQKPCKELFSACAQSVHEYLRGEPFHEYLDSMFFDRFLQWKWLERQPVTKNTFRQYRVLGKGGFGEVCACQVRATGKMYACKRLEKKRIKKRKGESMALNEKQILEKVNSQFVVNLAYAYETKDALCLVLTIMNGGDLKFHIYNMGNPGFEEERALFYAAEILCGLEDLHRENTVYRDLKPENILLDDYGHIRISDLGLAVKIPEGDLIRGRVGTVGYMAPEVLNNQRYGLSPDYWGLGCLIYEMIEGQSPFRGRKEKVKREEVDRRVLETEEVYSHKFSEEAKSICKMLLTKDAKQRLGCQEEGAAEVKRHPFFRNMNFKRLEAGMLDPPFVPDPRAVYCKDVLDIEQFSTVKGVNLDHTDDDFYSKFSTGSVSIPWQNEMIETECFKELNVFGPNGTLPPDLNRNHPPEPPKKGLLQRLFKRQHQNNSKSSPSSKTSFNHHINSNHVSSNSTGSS
| Structure (SMILES) | remaining activity |
| --- | --- |
| O=C1NC(=O)c2c1c1c3ccccc3[nH]c1c1[nH]c3cc(Br)ccc3c21 | 97% |
| COc1cc2c(N3CCN(C(=O)Nc4ccc(OC(C)C)cc4)CC3)ncnc2cc1OCCCN1CCCCC1 | 106% |
| O=C1NC(=O)c2c1c1c3ccccc3[nH]c1n1cncc21 | 94.4% |
| COc1cccc(-c2cc(=O)c3ccccc3o2)c1N | 97.3% |
| c1cc(-c2cnn3cc(-c4ccc(OCCN5CCCCC5)cc4)cnc23)ccn1 | 111% |
| FC(F)(F)c1ccc(/C=C/c2nc(COc3ccc(CCCCn4ccnn4)cc3)co2)cc1 | 109% |
| CCCCc1c(-c2ccc(OC)cc2)[nH]c2nccnc12 | 105% |
| c1ccc(-c2n[nH]c3c2oc2ccccc23)cc1 | 123% |
| N#C/C(=C(/N)SC1C=CC=CC1)c1cccc(C(O)c2ccncc2)c1 (stereo not drawn) | 87.2% |
| COc1ccc2c(c1)c(C1=C(c3c[nH]c4ccccc34)C(=O)NC1=O)cn2CCCN(C)C | 114% |
| Cc1cc(Nc2cc(N3CCN(C)CC3)nc(Sc3ccc(NC(=O)C4CC4)cc3)n2)[nH]n1 | 104% |
| CNc1cc2c(Nc3cccc(Br)c3)ncnc2cn1 | 120% |
| C[C@@H](N)[C@H]1CC[C@H](C(=O)Nc2ccncc2)CC1 | 108% |
| CCCNC(=O)Nc1ccc(Oc2ncnc3cc(OC)c(OC)cc23)cc1Cl | 105% |
| COc1cc2c(Nc3ccc(Br)cc3F)ncnc2cc1OCC1CCN(C)CC1 | 95.8% |
| CC(C)n1cnc2c(Nc3cccc(Cl)c3)nc(NCCO)nc21 | 99.4% |
| O=C(c1cc2cc(O)ccc2[nH]1)c1cc2cc(O)ccc2[nH]1 | 104% |
| Nc1nc(Nc2ccc(S(N)(=O)=O)cc2)nn1C(=S)Nc1c(F)cccc1F | 75.6% |
| O=c1cc(N2CCOCC2)oc2c(-c3ccccc3)cccc12 | 91.6% |
| COc1ccc(COc2ccc(Cc3cnc(N)nc3N)cc2OC)cc1 | 109% |
| N#CC(c1ccnc(NCCc2cccnc2)n1)c1nc2ccccc2s1 (stereo not drawn) | 93.8% |
| O=c1c(-c2ccc(F)cc2)c(-c2ccncc2)[nH]n1-c1ccc(Cl)cc1 | 90.3% |
| O=Nc1c(-c2c(O)[nH]c3cc(Br)ccc23)[nH]c2ccccc12 | 125% |
| O=C1Nc2ccccc2/C1=C\c1c(Cl)[nH]c2ccccc12 | 109% |
| CC(C)(C)c1nc2c3cc[nH]c(=O)c3c3cc(F)ccc3c2[nH]1 | 72.9% |

Set 3 — host: human; sample: microsomes or S9; concentration: 2 µM; time: 0.5 h
| Structure (SMILES) | remaining compound [%] |
| --- | --- |
| CC(=O)Nc1ccc(Nc2cc(C)nc(-n3nc(C)cc3C)n2)cc1 | 59 |
| c1ccc(-n2ccc3cnc(N4CCCCC4)nc32)nc1 | 0.922 |
| OCc1onc2c1CCOC2c1ccc(Cl)cc1 (stereo not drawn) | 72.3 |
| N#Cc1ccc(Oc2ccc(NC(=O)NCc3cc[nH]n3)cn2)cc1 | 66.5 |
| COc1cc2c(Nc3ccc(Br)cc3F)ncnc2cc1OCC1CN(C(=O)OC(C)(C)C)CCO1 (stereo not drawn) | 56.9 |
| NC(=O)[C@@H]1C[C@@H](F)CN1Cc1cc2c(cc1Br)OCO2 | > 100 |
| CN(CC(=O)N1CCCC1)Cc1cc(=O)n(C)c(=O)n1C | 96.5 |
| O=C1OC(C(=O)O)Cc2c(F)cc(Br)cc21 (stereo not drawn) | > 100 |
| CC(C)CN(CC(C)C)C(=O)Cn1nc(C(C)(C)C)ccc1=O | 0.0454 |

Set 4 — effect on: cell-free assay; method: competition with immobilised ligand; concentration: 1 µM
SMILES: O=C(O)[C@@H]1[C@@H](Cn2nnc3ccccc3c2=O)CC[C@H]1C(=O)c1ccc(OCCC2CCOCC2)cc1
| target | remaining binding [%] |
| --- | --- |
| BUB1 (Homo sapiens, UniProt O43683) | 73 |
| GRK2 (Homo sapiens, UniProt P25098) | 78 |
| NEK4 (Homo sapiens, UniProt P51957) | 56 |
| TRPM6 (Homo sapiens, UniProt Q9BX84) | 96 |
| ANKK1 (Homo sapiens, UniProt Q8NFD2) | 100 |
| PDGFRA (Homo sapiens, UniProt P16234) | 100 |
| LIM domain kinase 2 (LIMK2, Homo sapiens, UniProt P53671) | 100 |
| FLT3 (Homo sapiens, UniProt P36888, D835H) | 83 |

Set 5
Compound: CC(C)n1cnc(-c2ccc(F)cc2)c1-c1ncc(C(=O)Nc2ccc(N3CCN(C)CC3)cc2)[nH]1
| method | measured | host | dose | notes | patients with adverse event |
| --- | --- | --- | --- | --- | --- |
| Phase 2a trial | hypercholesterolaemia | human, idiopathic pulmonary fibrosis | 30 mg once daily | grade 4 | 0% |
| Phase 2a trial | blood creatinine increased | human, idiopathic pulmonary fibrosis | 30 mg once daily | grade 5 | 0% |
| Phase 2a trial | blood glucose increased | human, idiopathic pulmonary fibrosis | 60 mg once daily | grade 2 | 0% |
| Phase 2a trial | blood fibrinogen increased | human, idiopathic pulmonary fibrosis | 60 mg once daily | grade 1 | 0% |
| Phase 2a trial | hypocalcaemia | human, idiopathic pulmonary fibrosis | all compound arms total | grade 3 | 0% |
| Phase 2a trial | blood urea increased | human, idiopathic pulmonary fibrosis | 60 mg once daily | grade 2 | 0% |
| – | periorbital oedema, grade 2 | idiopathic pulmonary fibrosis patients | dose not given | all compound arms pooled | 0% |

For quick reference, copied from above (set 2):
| Structure (SMILES) | remaining activity |
| --- | --- |
| Cc1cc(Nc2cc(N3CCN(C)CC3)nc(Sc3ccc(NC(=O)C4CC4)cc3)n2)[nH]n1 | 104% |
| N#C/C(=C(/N)SC1C=CC=CC1)c1cccc(C(O)c2ccncc2)c1 (stereo not drawn) | 87.2% |
| COc1cccc(-c2cc(=O)c3ccccc3o2)c1N | 97.3% |
| O=C1NC(=O)c2c1c1c3ccccc3[nH]c1c1[nH]c3cc(Br)ccc3c21 | 97% |
| CNc1cc2c(Nc3cccc(Br)c3)ncnc2cn1 | 120% |
| CC(C)n1cnc2c(Nc3cccc(Cl)c3)nc(NCCO)nc21 | 99.4% |
| O=C(c1cc2cc(O)ccc2[nH]1)c1cc2cc(O)ccc2[nH]1 | 104% |
| FC(F)(F)c1ccc(/C=C/c2nc(COc3ccc(CCCCn4ccnn4)cc3)co2)cc1 | 109% |
| O=C1Nc2ccccc2/C1=C\c1c(Cl)[nH]c2ccccc12 | 109% |
